Assay results gathered from unrelated publications.
Protocols differ between the studies behind these lines. “And” joins repeats or separate records; there may be more than shown.

Substance | target or system | assay | system | setting | scale | quantity | value
COc1ccc(O)cc1OC | Replicase polyprotein 1ab, main protease (rep, Severe acute respiratory syndrome coronavirus 2, UniProt P0DTD1) | reporter gene (mKate2), inhibitor | – | 20 µM | – | inhibition | -0.264%
CC[C@H](C)[C@H](NC(=O)[C@H](CC(C)C)NC(=O)[C@H](Cc1c[nH]c2ccccc12)NC(=O)[C@H](CCC(N)=O)NC(=O)[C@@H](NC(=O)[C@H](Cc1ccccc1)NC(=O)[C@H](C)NC(=O)[C@H](CCCCNC(=O)COCCOCCNC(=O)COCCOCCNC(=O)CC[C@H](NC(=O)CCCCCCCCCCCCCCCCCCC(=O)O)C(=O)O)NC(=O)[C@H](CCC(N)=O)NC(=O)[C@H](C)NC(=O)[C@@H](NC(=O)[C@H](CCCCN)NC(=O)[C@H](CC(=O)O)NC(=O)[C@H](CC(C)C)NC(=O)C(C)(C)NC(=O)[C@@H](NC(=O)[C@H](CO)NC(=O)[C@H](Cc1ccc(O)cc1)NC(=O)[C@H](CC(=O)O)NC(=O)[C@H](CO)NC(=O)[C@@H](NC(=O)[C@H](Cc1ccccc1)NC(=O)[C@@H](NC(=O)CNC(=O)[C@H](CCC(=O)O)NC(=O)C(C)(C)NC(=O)[C@@H](N)Cc1ccc(O)cc1)[C@@H](C)O)[C@@H](C)O)[C@@H](C)CC)[C@@H](C)CC)C(C)C)C(=O)N[C@@H](C)C(=O)NCC(=O)NCC(=O)N1CCC[C@H]1C(=O)N[C@@H](CO)C(=O)N[C@@H](CO)C(=O)NCC(=O)N[C@@H](C)C(=O)N1CCC[C@H]1C(=O)N1CCC[C@H]1C(=O)N1CCC[C@H]1C(=O)N[C@@H](CO)C(N)=O | – | item: anti-drug antibodies | healthy human subjects | 1.5 mg multiple ascending, titer increase ≥4-fold | – | subjects with treatment-boosted ADA | 0%
QPYRVVVL | – | AIM | peptide, CD8+ T cells from PBMC, human donors | HLA-B*07:02 restricted, unit not given | relative to: positive over tested donors | frequency of responding donors | 25
Cn1cnc(Cn2c(=O)[nH]/c(=N\c3cc4cn(C)nc4cc3Cl)n(Cc3cc(F)c(F)cc3F)c2=O)n1 | – | – | human, all renal function groups | oral, 375 mg, treatment-related dry mouth, Severe severity | – | patients with adverse event | 0%
COc1ccccc1-c1cccc(CN2CCCC(C(=O)NCCc3ccc(F)cc3)C2)c1 (stereo not shown) | SARS-CoV-2 | cytopathic effect, cell-based CPE | USA_WA1/2020 | round 1, 5-point dilution | – | AC50 | 12.6 µM
Nc1ncnc2c([C@@H]3N[C@H](CO)[C@@H](O)[C@H]3O)c[nH]c12 | Zaire ebolavirus | viral replication, inhibitor | human Macrophage | 12.5 µM | – | inhibition | 0%
CCc1c(C(=O)C(N)=O)c2c(OCC(=O)O)cccc2n1Cc1ccccc1 | C2C12 | – | – | 1 µM, together with: KA venom | relative to: venom alone | viability difference | 5.09%
Cc1cccc(N2CCN(C(=O)C3CCN(Cc4nc(-c5ccc(Cl)cc5)oc4C)CC3)CC2)c1C | SARS-CoV-2 | cytopathic effect | USA_WA1/2020 | retest, 8-point, duplicates | – | maximum response | 13.3%
O=c1c(O)c(-c2ccc(O)cc2)oc2cc(O)cc(O)c12 | Spike glycoprotein (Severe acute respiratory syndrome coronavirus 2, UniProt P0DTC2) | binding, biolayer interferometry | – | – | – | Kd | 33.3 µM
VAMPNLYKM | – | AIM | peptide, CD8+ T cells from PBMC, human donors | – | relative to: positive over tested donors | frequency of responding donors | 100%
CNC(=O)[C@@H](NC(=O)[C@H](CC(C)C)[C@H](O)C(=O)NO)C(C)(C)C | Daboia russelii venom proteases (SVMP) | protease activity, inhibitor | MP population | 0.1 µM, together with: azocasein substrate | relative to: venom alone | remaining activity | 89% and 90.5% and 89.6%
COc1ccc2c(Sc3ccc(Cl)cc3)c(C(=O)NCCCN3CCCCC3)[nH]c2c1 | SARS-CoV-2 | cytopathic effect | USA_WA1/2020 | round 2, 5-point | – | efficacy | 110%
LYDKLVSSF | – | AIM | peptide, CD8+ T cells from PBMC, human donors | – | relative to: positive over tested donors | frequency of responding donors | 100%
